Experimental data from different studies.
± marks the error that the study gave.
Fibroin-modulator-binding protein-1: Fibroin-modulator-binding protein-1 99-193 (Bombyx mori, UniProt Q5FBS0)
SPT15/TOA1/TOA2/SUA7 1-240; 1-286; 1-122; 1-345: SPT15/TOA1/TOA2/SUA7 1-240; 1-286; 1-122; 1-345 (Saccharomyces cerevisiae)
UniProt P17802, sequence (whole entry, looked up): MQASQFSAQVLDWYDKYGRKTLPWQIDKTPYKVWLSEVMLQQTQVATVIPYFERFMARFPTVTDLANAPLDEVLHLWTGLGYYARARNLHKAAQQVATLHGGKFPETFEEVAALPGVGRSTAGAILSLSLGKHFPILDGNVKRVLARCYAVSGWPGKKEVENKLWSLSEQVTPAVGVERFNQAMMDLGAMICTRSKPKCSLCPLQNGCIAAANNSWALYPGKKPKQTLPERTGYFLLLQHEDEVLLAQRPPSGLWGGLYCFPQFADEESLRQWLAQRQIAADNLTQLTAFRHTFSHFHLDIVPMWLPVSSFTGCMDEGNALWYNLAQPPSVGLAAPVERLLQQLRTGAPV

| Molecule | target or system | test | test system | conditions | scale | endpoint | value |
| --- | --- | --- | --- | --- | --- | --- | --- |
| CCT6A |  | co-immunoprecipitation | human RBC membrane | unit not given, with: Band 3 peptide 1-56 bait | baseline: negative control | co-IP enrichment | 0 |
| GGGAGAACUUCGACCAGAAGUACGACUACUUCGGCACAUUACGCGACGAUCGAACCCGCCUAUGUGCGCAUACAUGGAUCCUC (ssRNA; 2'-fluoro pyrimidines) | integrin alphaV/beta3 31-992/27-718 (Homo sapiens) | SPR | RNA | with: MnCl2 1 mM | higher = more binding | relative binding | 47 RU |
| AGGAAGGAAGGA (dsDNA) | Fibroin-modulator-binding protein-1 | ITC | double-stranded DNA, one strand shown |  |  | Kd | 4960 ± 992 nM |
| GGGAGAACUUCGACCAGAAGUCCACUCUCGCGCACAUAUACGCAAAACCCUACCUGCCUUAUGUGCGCAUACAUGGAUCCUC (ssRNA; 2'-fluoro pyrimidines) | integrin alphaV/beta3 31-992/27-718 (Homo sapiens) | SPR | RNA | with: MnCl2 1 mM | higher = more binding | relative binding | 15.4 RU |
| GAATTCCTATAAAGTAATGTGGAGCTCCGTTCGTCTCAAGTCAATCGGTCC (dsDNA; 5'-amino-C6 primer) | SPT15/TOA1/TOA2/SUA7 1-240; 1-286; 1-122; 1-345 | array | double-stranded DNA, one strand shown | TBP:TFIIA:TFIIB ternary complex |  | Kd | 1.72 ± 0.57 nM |
| CTGTAACGGGAGCTAGTGGCTCCATGATCG / CGATCATGGAGCCACGAGCTCCCGTTACAG (dsDNA; blunt; 8-oxoG:2'-fluoro-A mismatch) | mutY full length assumed (Escherichia coli, UniProt P17802) | fluorescence polarization |  | apparent |  | K1/2 | 7 ± 1 nM |
| GGGAGAACUUCGACCAGAAGGUGCACGGCAAUACGCAUGACGUUCACCCUGCCUUUGCCUUAUGUGCGCAUACAUGGAUCCUC (ssRNA; 2'-fluoro pyrimidines) | integrin alphaV/beta3 31-992/27-718 (Homo sapiens) | SPR | RNA | with: MnCl2 1 mM | higher = more binding | relative binding | 51.1 RU |
| ATTATGTCGTTGGATTTATTT (ssDNA; single-stranded) | APOBEC3B 187-382 E255A (Homo sapiens, UniProt Q9UH17) | competitive fluorescence polarization | single-stranded DNA |  |  | IC50 | 1000 ± 100 nM |
| GLFQWIYRA | Jurkat T cells expressing 1G4 TCR | NFAT-eGFP reporter, fluorescence microscopy | peptide | concentration not given, HLA-A*02:01 NY-ESO system |  | reporter activation | 0.0024% |
| ACTGACTGACTG (dsDNA) | Fibroin-modulator-binding protein-1 | ITC | double-stranded DNA, one strand shown |  |  | Kd | 8440 nM |
| DNA 1 CACTGGCCGTCTTACGGTCGCTCTGCTCGACG / DNA 2 CGACCGTAAGACGGCCAGTG (dsDNA; 20 bp, 3' 12 nt overhang) | RECQL 63-592 Q324A (Bos taurus, UniProt A0JN36) | fluorescence anisotropy | double-stranded DNA | with: Mg2+ 3 mM |  | Kd | 24.5 ± 2.9 nM |
| CCGGGTTCCTGTTTCCCGGCCGCGGCCACTCCAGATCAAGTCAATCGGTCC (dsDNA; 5'-amino-C6 primer) | SPT15/TOA1/TOA2/SUA7 1-240; 1-286; 1-122; 1-345 | array | double-stranded DNA, one strand shown | TBP:TFIIA:TFIIB ternary complex |  | Kd | 6.78 ± 3.84 nM |
| DNA 1 TGGGTGGGTAGGGTGGGTAGGGGAGGAT / DNA 2 ATCCTCCCCTA (DNA; intramolecular parallel G4, 5' overhang, 11-bp duplex) | REV1 330-833 N373S (Homo sapiens, UniProt Q9UBZ9) | FP | folded DNA | KCl 100 mM |  | Kd | 1.8 ± 0.6 nM |
| GGGAGAACUUCGACCAGAAGAUUGUGACCCGAUUUGUCACUCUUUCUAUGUACGCGGAAUUAUGUGCGCAUACAUGGAUCCUC (ssRNA; 2'-fluoro pyrimidines) | integrin alphaV/beta3 31-992/27-718 (Homo sapiens) | SPR | RNA | with: MnCl2 1 mM | higher = more binding | relative binding | -0.1 RU |
| GSGAGSETSV | human SCRIB PDZ3-4 tandem (MBP fusion) | automated holdup | peptide, crude extract | concentration not given, uncorrected, unit not given | baseline: biotin control resin, higher = stronger binding | binding intensity | 0.861 |
| adenosylhomocysteinase |  | co-immunoprecipitation | human RBC cytosol | DSSO crosslinker, unit not given, with: Band 3 peptide 1-56 bait | baseline: negative control | co-IP enrichment | 5000 |
| GGCAGGCAGGCA (dsDNA) | Fibroin-modulator-binding protein-1 | ITC | double-stranded DNA, one strand shown |  |  | Kd | 14700 nM |
| QSARYRDTEL | human SCRIB PDZ3-4 tandem (MBP fusion) | automated holdup | peptide, purified PDZ protein | concentration not given, unit not given | baseline: biotin control resin, higher = stronger binding | binding intensity | 0.686 |
| ACGGACGGACGG (dsDNA) | Fibroin-modulator-binding protein-1 | ITC | double-stranded DNA, one strand shown |  |  | Kd | 26700 nM |
| CAAATGTATGCACCATATCCATTCTAAACATAGTTTCAAGTCAATCGGTCC (dsDNA; 5'-amino-C6 primer) | SPT15/TOA1/TOA2/SUA7 1-240; 1-286; 1-122; 1-345 | array | double-stranded DNA, one strand shown | TBP:TFIIA:TFIIB ternary complex |  | Kd | 1.62 ± 0.48 nM |
| CGTACGTACGTA (dsDNA) | Fibroin-modulator-binding protein-1 | ITC | double-stranded DNA, one strand shown |  |  | Kd | 3360 ± 412 nM |
| GGGAGAACUUCGACCAGAAGUCCUUAACUUCAGCGUACAUUACGCUACAUCUCCCCAGCCUAUGUGCGCAUACAUGGAUCCUC (ssRNA; 2'-fluoro pyrimidines) | integrin alphaV/beta3 31-992/27-718 (Homo sapiens) | SPR | RNA | with: MnCl2 1 mM | higher = more binding | relative binding | 120 RU |

For quick reference, copied from above:
| Molecule | target or system | test | test system | conditions | scale | endpoint | value |
| --- | --- | --- | --- | --- | --- | --- | --- |
| CCGGGTTCCTGTTTCCCGGCCGCGGCCACTCCAGATCAAGTCAATCGGTCC (dsDNA; 5'-amino-C6 primer) | SPT15/TOA1/TOA2/SUA7 1-240; 1-286; 1-122; 1-345 | array | double-stranded DNA, one strand shown | TBP:TFIIA:TFIIB ternary complex |  | Kd | 6.78 ± 3.84 nM |
